Published values pooled from the literature.
Several values in a cell are separate wells, animals, samples, runs or records.
Target: Inhibitor of nuclear factor kappa-B kinase subunit beta (IKBKB, Homo sapiens, UniProt O14920)

| SMILES | assay | system | setting | how to read | measurement | result |
| --- | --- | --- | --- | --- | --- | --- |
| CN1CCN(Cc2ccc(NC(=O)c3cccc(C#Cc4cnc(N)c5ncccc45)c3)cc2C(F)(F)F)CC1 | cell-free assay, competition with immobilised ligand |  | 0.5 µM |  | remaining binding | 0.1% |
| CNC1C[S+]2CC[S+]3CC[S+](C1)[Ru-4]321([N]=C=S)[n]2c3ccc(OC)cc3c3c4c(c5cc(F)c[n+]1c5c32)C(=O)NC4=O (centres unmarked) | KinomeScan |  | 0.1 µM | reference: untreated | remaining binding | 80% |
| NC(=O)C[C@H]1CCc2sc3ncnc(O[C@H]4CC[C@H](N5CCOCC5)CC4)c3c21 | enzyme activity, inhibitor |  | 10 µM |  | inhibition | 3% |
| O=C(Cc1ccc(OCc2ccccc2)cc1)NC1(C(=O)O)CCN(C(=O)c2ccc(-c3cccc(Cl)c3)cc2)CC1 | enzyme activity, inhibitor |  | 10 µM |  | activity vs control | 132% |
| COc1c(Cl)cccc1Nc1c(-c2ccncc2C#C[C@@]2(C)CCCN2C(=O)/C=C/CN(C)C)[nH]c2c1C(=O)NCC2 | binding, competition with immobilised ligand |  | 3 µM |  | remaining binding | 88% |
| CC(=O)N1c2ccc(-c3ccc(CNC(=O)c4cn5cc(-c6cnc(N)nc6)nc(N6CCOCC6)c5n4)cc3)cc2CC[C@@H]1C | binding, competition with immobilised ligand |  | 10 µM |  | remaining binding | 88% |
| Cc1cnc2nc1Nc1cccc(c1)COC/C=C/COCc1cc(ccc1OCCN1CCOCC1)N2 | binding, competition with immobilised ligand |  | 0.1 µM |  | remaining binding | 100% |
| C=CC(=O)Nc1cccc(-c2cnc3[nH]cc(C(=O)NC(C)(C)C)c3n2)c1 | kinase activity |  | 0.1 µM |  | inhibition | -1% and 1% |
| Nc1nc(Nc2ccccc2)sc1C(=O)c1ccccc1 | enzyme activity, inhibitor |  | 10 µM |  | remaining activity | 55% |
| CS(=O)(=O)Nc1cccc(-c2csc3cnc(Nc4ccc(N5CCN(CCCCCOc6cccc7c6C(=O)N(C6CCC(=O)NC6=O)C7=O)CC5)cc4)nc23)c1 (centres unmarked) | probe labelling, inhibitor, KiNativ chemoproteomics | MOLT-4 | 1 µM |  | inhibition | -24.9% |
| COc1ccc(NC(=O)Nc2ccc3c(c2)C(=O)N(C(C)CO)CC(C)C(CN(C)Cc2ccc4c(c2)OCO4)O3)cc1 (centres unmarked) | binding, competition with immobilised ligand |  | 10 µM |  | remaining binding | 68% |
| COc1cc(Nc2nccc(-c3cnn4nc(OC)ccc34)n2)cc(C(F)(F)F)c1 | binding, competition with immobilised ligand |  | 1 µM |  | remaining binding | 82% |
| CC(C)=CC1OC(C)(C)C2C=C3C(=O)C(Cl)=CC(O)C3C3C(O)C4OC4C(=O)C132 (centres unmarked) | cell-free assay, competition with immobilised ligand |  | 10 µM |  | remaining binding | 77% |
| C=CC(=O)N1CCc2ccc(-n3c(=O)ccc4cnc5ccc(-c6cnn(C)c6)cc5c43)cc21 | KINOMEscan |  | 1 µM | reference: DMSO control | remaining binding | 100% |
| Cc1cccc(-c2ccc3nc(NC(=O)C4CCCCC4)nn3c2)c1 | enzyme activity, Dundee kinase panel |  | 10 µM |  | remaining activity | 90% |
| CCn1cc(C(=O)O)c(=O)c2c(N)c(F)c(NC3CCCCC3)cc21 | kinase activity |  | 0.1 µM, together with: ATP at Km |  | inhibition | 8.7% |
| CNC(=O)C1CCN(c2cc(C)c(F)cc2NC(=O)c2ccc(-c3cc(O)ccc3C)c(C)c2)CC1 | binding, competition with immobilised ligand |  | 1 µM |  | remaining binding | 100% |
| Nc1ncc(-c2cc(-c3cnn(CC(F)(F)F)c3)ncc2F)nc1C(=O)NC1CNCC(F)C1 (centres unmarked) | enzyme activity |  | 1 µM | reference: DMSO control | remaining activity | 94.4% |
| Cc1ccc(C)c(-c2ccc3nc(NC(=O)C4CCCCC4)nn3c2)c1 | enzyme activity, Dundee kinase panel |  | 10 µM |  | remaining activity | 93% |
| COCC12C(=O)NC3C4(C(OC)CC1O)C1CC5(O)C(OC)C(O)C(OC(C)=O)(C1C5OC(=O)c1ccccc1)C3(O)C(OC)C24 (centres unmarked) | kinase activity, inhibitor, ProQinase kinase profiling |  | 25 µM | reference: control | remaining activity | 100% and 86% |
| C=CC(=O)N1CCCC(n2c(=O)c3ncccc3n(Cc3ccc(Oc4ccccc4)cc3)c2=O)C1 (centres unmarked) | cell-free assay, competition with immobilised ligand |  | 1 µM |  | remaining binding | 81% |
| Cc1cccc(O[C@H]2CCC[C@@H](C(C)CNCc3ccncc3)C2)c1 (relative stereo) | enzyme activity, inhibitor |  | 10 µM |  | inhibition | -9% |
| Cn1cc(-c2cnc3ccc(NC(=O)Nc4ccc5sccc5c4)cc3n2)cn1 | kinase binding, KiNativ profiling, refers to: Lys1 peptide | PANC-1 lysate | 2.5 µM |  | inhibition | 1.8% |

Repeated from above:
| SMILES | assay | system | setting | how to read | measurement | result |
| --- | --- | --- | --- | --- | --- | --- |
| CNC1C[S+]2CC[S+]3CC[S+](C1)[Ru-4]321([N]=C=S)[n]2c3ccc(OC)cc3c3c4c(c5cc(F)c[n+]1c5c32)C(=O)NC4=O (centres unmarked) | KinomeScan |  | 0.1 µM | reference: untreated | remaining binding | 80% |
| NC(=O)C[C@H]1CCc2sc3ncnc(O[C@H]4CC[C@H](N5CCOCC5)CC4)c3c21 | enzyme activity, inhibitor |  | 10 µM |  | inhibition | 3% |
| O=C(Cc1ccc(OCc2ccccc2)cc1)NC1(C(=O)O)CCN(C(=O)c2ccc(-c3cccc(Cl)c3)cc2)CC1 | enzyme activity, inhibitor |  | 10 µM |  | activity vs control | 132% |
